Measured values collected from several papers.
Protocols differ between the studies behind these lines. Numbers after ± are the reported error.

Structure (SMILES)	tested on	test	test system	setting	how to read	quantity	value
Cc1ncc(Cl)cc1NC(=O)c1cc(-c2ccc(F)c(O)c2)on1	–	membrane potential, rhodamine uptake	isolated mouse liver mitochondria	–	–	EC50	> 100 µM
CCc1nc(-c2ccc(-c3ccc(CCC(N)(CO)CO)cc3)cc2)co1	–	phosphorylation	rat whole blood	60 min, 37 °C, up to 100 µM	–	Km	65.1 ± 11.5 µM
COc1ccc(C2CC(c3ccc(C)cc3)=Nc3ccccc3S2)cc1OC (stereo not shown)	–	–	Wistar rat, STZ-induced diabetes, serum	oral, 10 mg/kg once daily, 28 days	–	AST (SGOT)	23.9 ± 2.11 IU/L
C=C1C[C@@]23CC[C@H]4[C@@](C)(CCC[C@@]4(C)C(=O)O[C@@H]4O[C@H](CO)[C@@H](O)[C@H](O)[C@H]4O)[C@@H]2CC[C@]1(O[C@@H]1O[C@H](CO[C@H]2O[C@H](CO)[C@@H](O)[C@H](O)[C@H]2O)[C@@H](O)[C@H](O)[C@H]1O[C@@H]1O[C@H](CO)[C@@H](O)[C@H](O)[C@H]1O)C3	–	qPCR, item: Cox5b	C57BL/6N mice, high-fat diet, brown adipose tissue	drinking water, 0.2 g/L, 16 weeks	–	mRNA level	increased
COc1ccc2c(c1)c(CC(=O)OCC(=O)c1ccccc1)c(C)n2C(=O)c1ccc(Cl)cc1	–	hot plate test	BALB/c mice	50 mg/kg, 90 min	–	latency of nociceptive response	16.4 ± 1.11 s
CCN(CC)CCSC(=S)N1CCN(C(=O)/C=C/c2coc3ccc(OC)cc3c2=O)CC1	tomato spotted wilt virus	viral infection, half-leaf method	Nicotiana glutinosa	500 µg/mL	–	inactivation effect	59.7 ± 7.2%
C[C@H](NC(=O)COC(=O)[C@H](C)NC(=O)CO)C(=O)O	–	–	water	pH 8, 37 °C	–	depolymerization rate constant	31.1 h⁻¹
Cc1cc(O)c(C=O)c2c1C(=O)Oc1c(CO)c(O)c3c(c1O2)C(O)OC3=O (stereo not shown)	–	–	rat male, streptozotocin diabetic	5 mg/kg, 5 weeks	–	body weight	162 ± 7.4 g
C=C(c1ccc(C(=O)O)c(F)c1)c1cc2c(cc1C)C(C)(C)C=CC2(C)C	–	RNA sequencing, item: Nmu	rat, brain	dose not given, 24 h	baseline: vehicle	log2 fold change	-0.24
CC(C)n1cnc(C[C@H](NC(=O)c2nccnc2N)C(=O)N2CCC[C@H]2C(N)=O)c1	–	–	Swiss albino mice	iv, 10 µmol/kg, added: pentobarbital 50 mg/kg ip	–	sleeping time	67.6 ± 6.1 min
CN1Cc2c(Cl)cc(Cl)cc2C(c2cccc(S(=O)(=O)NCCOCCOCCOCCNC(=O)C(O)C(O)C(=O)NCCOCCOCCOCCNS(=O)(=O)c3cccc(C4CN(C)Cc5c(Cl)cc(Cl)cc54)c3)c2)C1 (stereo not shown)	–	–	Sprague Dawley rats	oral, 3 mg/kg, 16 h	higher = more watery	stool form score	2
Cc1cc(=O)[nH]c2ccc(OCCCC(=O)N3CCOCC3)cc12	–	–	rat, isolated spontaneously beating atria	100 µM	baseline: baseline	contraction rate increase	23 ± 6%
N=C(N)NCCC[C@@H]1NC(=O)[C@H](CCCCNC(=O)CCOCCOCCOCCOCCOCCOCCOCCOCCOCCOCCOCCOCCNC(=O)CCSC2CC(=O)N(CCC(=O)NCCCC[C@H](NC(=O)CCC(C(=O)O)N3CCN(C(CCC(=O)N[C@@H](CCCCNC(=O)CCN4C(=O)CC(SCCC(=O)NCCOCCOCCOCCOCCOCCOCCOCCOCCOCCOCCOCCOCCC(=O)NCCCC[C@@H]5NC(=O)[C@@H](Cc6ccc(O)cc6)NC(=O)[C@H](CC(=O)O)NC(=O)CNC(=O)[C@H](CCCNC(=N)N)NC5=O)C4=O)C(=O)N(CCCNC(=O)CN4CCN(CC(=O)O)CCN(CC(=O)O)CCN(CC(=O)O)CC4)CCCNC(=O)CN4CCN(CC(=O)O)CCN(CC(=O)O)CCN(CC(=O)O)CC4)C(=O)O)CCN(C(CCC(=O)N[C@@H](CCCCNC(=O)CCN4C(=O)CC(SCCC(=O)NCCOCCOCCOCCOCCOCCOCCOCCOCCOCCOCCOCCOCCC(=O)NCCCC[C@@H]5NC(=O)[C@@H](Cc6ccc(O)cc6)NC(=O)[C@H](CC(=O)O)NC(=O)CNC(=O)[C@H](CCCNC(=N)N)NC5=O)C4=O)C(=O)N(CCCNC(=O)CN4CCN(CC(=O)O)CCN(CC(=O)O)CCN(CC(=O)O)CC4)CCCNC(=O)CN4CCN(CC(=O)O)CCN(CC(=O)O)CCN(CC(=O)O)CC4)C(=O)O)CC3)C(=O)N(CCCNC(=O)CN3CCN(CC(=O)O)CCN(CC(=O)O)CCN(CC(=O)O)CC3)CCCNC(=O)CN3CCN(CC(=O)O)CCN(CC(=O)O)CCN(CC(=O)O)CC3)C2=O)NC(=O)[C@@H](Cc2ccc(O)cc2)NC(=O)[C@H](CC(=O)O)NC(=O)CNC1=O (stereo partly shown) [gallium-68 labelled]	–	MR imaging	SCID mice, U-87 MG xenograft tumour	Gd 0.027 mmol/kg, 1 h, 1.0 T, unit not given	baseline: before injection	MR contrast enhancement	3.06
C[N+](C)(CF)CCO	–	aggregometry	mouse platelet-rich plasma	20 µM, added: with or without ADP	–	platelet aggregation	no effect
COc1c2c(cc3oc(CO)cc(=O)c13)O[C@H](C(C)(C)O)C2	–	rectal temperature	rat, 2,4-dinitrophenol-induced pyrexia	oral, dose not given	–	onset of antipyretic effect	0.5 h
O=Cc1c(O)ccc2ccccc12	HUVEC	RNA sequencing, item: CAV1	–	75 µM, 24 h	baseline: DMSO	log2 fold change	-2.93

Structure (SMILES)	tested on	test	test system	setting	how to read	quantity	value
O=C(NC1CCCCC1)C(c1cncs1)N(C(=O)CCl)c1ccc(F)cc1 (racemic)	–	competitive ABPP	MDA-MB-435 soluble proteome	5 µM, added: CA-Rh probe	–	off-target molecular weight	38 kDa
O=C(NCCN1C(=O)C=CC1=O)[O][Pt-2]12([O]C(=O)NCCN3C(=O)C=CC3=O)([NH2+][C@@H]3CCCC[C@H]3[NH2+]1)[O]C(=O)C(=O)[O]2	–	H&E histology	BALB/c mouse CT26 allograft, tumour	dose not given, day 12	–	apoptotic cells	~40%
CC[C@H](C)[C@H](NC(=O)[C@H](CC(N)=O)NC(=O)[C@H](CC(N)=O)NC(=O)[C@H](CCCNC(=N)N)NC(=O)[C@H](CC(N)=O)NC(=O)[C@H](CCCNC(=N)N)NC(=O)[C@H](CCCCN)NC(=O)[C@@H](NC(=O)[C@H](CC(N)=O)NC(=O)[C@H](CCSC)NC(=O)[C@H](CC(C)C)NC(=O)[C@H](Cc1c[nH]c2ccccc12)NC(=O)[C@H](CCC(N)=O)NC(=O)[C@@H](NC(=O)[C@H](Cc1ccccc1)NC(=O)[C@H](CC(=O)O)NC(=O)[C@H](CCC(N)=O)NC(=O)[C@H](C)NC(=O)[C@H](CCCNC(=N)N)NC(=O)[C@H](CCCNC(=N)N)NC(=O)[C@H](CO)NC(=O)[C@H](CC(=O)O)NC(=O)[C@H](CC(C)C)NC(=O)[C@H](Cc1ccc(O)cc1)NC(=O)[C@H](CCCCN)NC(=O)[C@H](CO)NC(=O)[C@H](Cc1ccc(O)cc1)NC(=O)[C@H](CC(=O)O)NC(=O)[C@H](CO)NC(=O)[C@@H](NC(=O)[C@H](Cc1ccccc1)NC(=O)[C@@H](NC(=O)CNC(=O)[C@H](CCC(=O)O)NC(=O)[C@@H](CO)NC(=O)[C@@H](N)Cc1c[nH]cn1)[C@@H](C)O)[C@@H](C)O)C(C)C)[C@@H](C)O)C(=O)N[C@@H](C)C(=O)N[C@@H](CSCC(=O)NCCOCCOCCOCCOCCC(=O)O[C@H]1CC[C@@]2(C)C(=CC[C@H]3[C@@H]4CC[C@H]([C@H](C)CCCC(C)C)[C@@]4(C)CC[C@@H]32)C1)C(N)=O	–	–	diet-induced obese mice	subcutaneous, 1.9 µmol/kg every other day, 14 days	baseline: vehicle	cumulative food intake reduction	12%
CN(C)C(=O)c1ccnc(N2Cc3cn(Cc4ccc(F)cc4F)nc3C2)n1	–	paired-pulse ratio	hippocampal Schaffer collaterals, mouse	concentration not given, interval 50 ms, unit not given	baseline: vehicle	effect size d	1.83
COC(=O)N1c2ccc3c(nc(Cc4ccccc4)n3[C@@H]3CCC[C@@H](C(=O)O)C3)c2CC[C@@H]1C	–	–	mouse, breast cancer PDX	oral, 50 mg/kg, 4 days/week, 45 days	–	responding TNBC AR+ xenografts	50%
Cc1ccc(S(=O)(=O)N(CCc2nnc(S)n2N)c2ccc(Cl)cc2)cc1	–	seizure	maximal electroshock model	200 mg/kg	–	protection	33%
Nc1ncnc2c1sc1sc3c(N)ncnc3c12	–	ABTS	–	concentration not given	–	radical scavenging	78%
Cc1cc2c(cc1C1(c3ncc(C(=O)O)cn3)CC1)C(C)(C)CCC2(C)C	–	RNA sequencing, item: Rbp1	rat, brain	dose not given, 24 h	baseline: vehicle	log2 fold change	-0.36
CN1CCC[C@]1(C)/C=C/S(=O)(=O)NC(=O)Nc1c2c(cc3c1CCC3)CCC2	–	IL-1β release, ex vivo whole blood	human, whole blood	oral, 250 mg single dose, 24 h, added: LPS and ATP	–	inhibition	> 90%
CCCSC(=S)N1CCN(C(=O)/C=C/c2coc3ccccc3c2=O)CC1	tomato spotted wilt virus	viral infection, half-leaf method	Nicotiana glutinosa	500 µg/mL	–	curative effect	53.4 ± 9%
COc1ccc(C2CC(c3ccc(C)cc3)=Nc3ccccc3S2)cc1 (stereo not shown)	–	–	Wistar rat, STZ-induced diabetes	oral, 20 mg/kg once daily, day 7	–	body weight	193 ± 4.18 g
CC/C=C\C/C=C\C/C=C\C/C=C\C/C=C\CCCCOC(CC)C(=O)O (stereo not shown)	–	–	APOE*3Leiden.CETP mice, high-fat/cholesterol diet	dose not given, 20 weeks	baseline: control	hepatic GSSG	decreased
CCN(CC)C(=O)C1CCCN(C(=O)Nc2ccc3nc(-c4ccco4)c(-c4ccco4)nc3c2)C1 (stereo not shown)	–	cell proliferation, inhibitor, MTT	spleen cells, mouse	72 h, added: concanavalin A 5 µg/mL	–	IC50	4.32 µM
Cc1nc(C)c(C=[N+]([O-])C(C)(C)C)nc1C	–	Western blot, item: HO-1	mouse, MPTP model, substantia nigra cytosol	90 mg/kg	–	protein level increase	48.6%
CC(C)c1cnc(-c2cc(Cl)ccc2F)cc1Nc1ccncc1C(=O)NC(CO)CO	–	item: pSMAD2	4T1 tumour-bearing mouse, tumour	10 mg/kg twice daily, 0 to 8 h average	baseline: vehicle	inhibition	23%

For quick reference, copied from above:
Structure (SMILES)	tested on	test	test system	setting	how to read	quantity	value
CCCSC(=S)N1CCN(C(=O)/C=C/c2coc3ccccc3c2=O)CC1	tomato spotted wilt virus	viral infection, half-leaf method	Nicotiana glutinosa	500 µg/mL	–	curative effect	53.4 ± 9%
COc1ccc(C2CC(c3ccc(C)cc3)=Nc3ccccc3S2)cc1 (stereo not shown)	–	–	Wistar rat, STZ-induced diabetes	oral, 20 mg/kg once daily, day 7	–	body weight	193 ± 4.18 g
CC/C=C\C/C=C\C/C=C\C/C=C\C/C=C\CCCCOC(CC)C(=O)O (stereo not shown)	–	–	APOE*3Leiden.CETP mice, high-fat/cholesterol diet	dose not given, 20 weeks	baseline: control	hepatic GSSG	decreased
